{"data": "Results gathered from unrelated publications", "note": "Every numbered part comes from another study and shows a few of its results, in no order. “And” joins repeats or separate records; there may be more than shown.", "chain of UniProt Q96PN8 (whole entry, looked up)": "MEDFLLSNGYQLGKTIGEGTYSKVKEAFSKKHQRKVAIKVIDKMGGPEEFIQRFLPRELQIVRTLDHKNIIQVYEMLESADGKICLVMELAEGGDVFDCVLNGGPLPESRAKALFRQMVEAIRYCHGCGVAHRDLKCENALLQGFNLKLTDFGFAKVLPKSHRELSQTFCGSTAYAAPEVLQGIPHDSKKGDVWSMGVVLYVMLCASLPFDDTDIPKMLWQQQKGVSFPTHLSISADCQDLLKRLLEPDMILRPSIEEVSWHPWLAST", "chain of UniProt P42336 (whole entry, unmodified, looked up)": "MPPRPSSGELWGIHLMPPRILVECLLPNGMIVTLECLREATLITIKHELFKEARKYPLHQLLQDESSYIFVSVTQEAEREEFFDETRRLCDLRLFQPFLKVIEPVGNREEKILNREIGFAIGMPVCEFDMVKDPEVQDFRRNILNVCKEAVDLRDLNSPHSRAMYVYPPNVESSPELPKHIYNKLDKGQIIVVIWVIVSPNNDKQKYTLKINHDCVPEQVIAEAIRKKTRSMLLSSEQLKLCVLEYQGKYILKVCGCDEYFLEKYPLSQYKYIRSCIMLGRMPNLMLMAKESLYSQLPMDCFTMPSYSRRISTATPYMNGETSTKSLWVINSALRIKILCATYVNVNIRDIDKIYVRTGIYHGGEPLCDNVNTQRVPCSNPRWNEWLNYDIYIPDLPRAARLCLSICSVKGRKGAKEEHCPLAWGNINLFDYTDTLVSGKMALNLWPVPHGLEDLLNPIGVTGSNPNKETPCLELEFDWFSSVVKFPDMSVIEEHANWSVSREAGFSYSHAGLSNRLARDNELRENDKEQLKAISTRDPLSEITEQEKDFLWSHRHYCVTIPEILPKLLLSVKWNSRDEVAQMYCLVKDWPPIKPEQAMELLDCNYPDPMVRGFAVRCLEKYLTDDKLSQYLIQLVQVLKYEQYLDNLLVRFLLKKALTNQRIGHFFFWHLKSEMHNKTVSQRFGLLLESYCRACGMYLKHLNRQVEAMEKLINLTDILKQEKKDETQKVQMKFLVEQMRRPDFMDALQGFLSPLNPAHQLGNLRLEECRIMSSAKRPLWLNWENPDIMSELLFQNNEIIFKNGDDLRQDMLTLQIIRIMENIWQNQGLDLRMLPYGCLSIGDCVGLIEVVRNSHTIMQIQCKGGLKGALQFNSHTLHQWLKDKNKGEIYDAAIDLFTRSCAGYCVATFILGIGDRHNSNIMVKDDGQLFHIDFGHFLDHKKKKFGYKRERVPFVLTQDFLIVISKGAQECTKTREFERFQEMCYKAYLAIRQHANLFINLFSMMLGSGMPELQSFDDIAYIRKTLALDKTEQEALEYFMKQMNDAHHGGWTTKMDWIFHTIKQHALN", "chain of UniProt P04629 (whole entry, looked up)": "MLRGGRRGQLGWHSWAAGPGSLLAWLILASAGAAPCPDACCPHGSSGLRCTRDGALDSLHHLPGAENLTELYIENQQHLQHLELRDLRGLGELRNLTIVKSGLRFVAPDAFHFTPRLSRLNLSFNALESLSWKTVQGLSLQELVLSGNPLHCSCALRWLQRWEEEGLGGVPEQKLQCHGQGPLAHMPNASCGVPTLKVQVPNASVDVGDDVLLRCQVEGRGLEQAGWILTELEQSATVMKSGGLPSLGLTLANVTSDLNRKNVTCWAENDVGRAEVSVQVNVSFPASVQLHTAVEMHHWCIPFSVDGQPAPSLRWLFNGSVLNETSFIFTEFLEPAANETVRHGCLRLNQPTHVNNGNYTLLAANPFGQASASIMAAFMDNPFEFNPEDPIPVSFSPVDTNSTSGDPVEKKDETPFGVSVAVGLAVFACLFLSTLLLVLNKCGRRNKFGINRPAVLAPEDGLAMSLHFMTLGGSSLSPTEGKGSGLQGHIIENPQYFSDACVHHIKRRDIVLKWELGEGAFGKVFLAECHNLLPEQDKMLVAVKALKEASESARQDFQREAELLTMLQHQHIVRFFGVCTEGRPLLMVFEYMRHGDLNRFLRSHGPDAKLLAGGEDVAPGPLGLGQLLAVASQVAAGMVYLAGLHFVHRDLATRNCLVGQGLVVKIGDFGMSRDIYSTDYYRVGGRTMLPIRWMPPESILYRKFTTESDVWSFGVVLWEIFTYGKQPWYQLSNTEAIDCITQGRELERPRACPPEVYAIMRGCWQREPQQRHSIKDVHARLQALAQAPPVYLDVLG", "chain of UniProt Q9Y2H9 (whole entry, looked up)": "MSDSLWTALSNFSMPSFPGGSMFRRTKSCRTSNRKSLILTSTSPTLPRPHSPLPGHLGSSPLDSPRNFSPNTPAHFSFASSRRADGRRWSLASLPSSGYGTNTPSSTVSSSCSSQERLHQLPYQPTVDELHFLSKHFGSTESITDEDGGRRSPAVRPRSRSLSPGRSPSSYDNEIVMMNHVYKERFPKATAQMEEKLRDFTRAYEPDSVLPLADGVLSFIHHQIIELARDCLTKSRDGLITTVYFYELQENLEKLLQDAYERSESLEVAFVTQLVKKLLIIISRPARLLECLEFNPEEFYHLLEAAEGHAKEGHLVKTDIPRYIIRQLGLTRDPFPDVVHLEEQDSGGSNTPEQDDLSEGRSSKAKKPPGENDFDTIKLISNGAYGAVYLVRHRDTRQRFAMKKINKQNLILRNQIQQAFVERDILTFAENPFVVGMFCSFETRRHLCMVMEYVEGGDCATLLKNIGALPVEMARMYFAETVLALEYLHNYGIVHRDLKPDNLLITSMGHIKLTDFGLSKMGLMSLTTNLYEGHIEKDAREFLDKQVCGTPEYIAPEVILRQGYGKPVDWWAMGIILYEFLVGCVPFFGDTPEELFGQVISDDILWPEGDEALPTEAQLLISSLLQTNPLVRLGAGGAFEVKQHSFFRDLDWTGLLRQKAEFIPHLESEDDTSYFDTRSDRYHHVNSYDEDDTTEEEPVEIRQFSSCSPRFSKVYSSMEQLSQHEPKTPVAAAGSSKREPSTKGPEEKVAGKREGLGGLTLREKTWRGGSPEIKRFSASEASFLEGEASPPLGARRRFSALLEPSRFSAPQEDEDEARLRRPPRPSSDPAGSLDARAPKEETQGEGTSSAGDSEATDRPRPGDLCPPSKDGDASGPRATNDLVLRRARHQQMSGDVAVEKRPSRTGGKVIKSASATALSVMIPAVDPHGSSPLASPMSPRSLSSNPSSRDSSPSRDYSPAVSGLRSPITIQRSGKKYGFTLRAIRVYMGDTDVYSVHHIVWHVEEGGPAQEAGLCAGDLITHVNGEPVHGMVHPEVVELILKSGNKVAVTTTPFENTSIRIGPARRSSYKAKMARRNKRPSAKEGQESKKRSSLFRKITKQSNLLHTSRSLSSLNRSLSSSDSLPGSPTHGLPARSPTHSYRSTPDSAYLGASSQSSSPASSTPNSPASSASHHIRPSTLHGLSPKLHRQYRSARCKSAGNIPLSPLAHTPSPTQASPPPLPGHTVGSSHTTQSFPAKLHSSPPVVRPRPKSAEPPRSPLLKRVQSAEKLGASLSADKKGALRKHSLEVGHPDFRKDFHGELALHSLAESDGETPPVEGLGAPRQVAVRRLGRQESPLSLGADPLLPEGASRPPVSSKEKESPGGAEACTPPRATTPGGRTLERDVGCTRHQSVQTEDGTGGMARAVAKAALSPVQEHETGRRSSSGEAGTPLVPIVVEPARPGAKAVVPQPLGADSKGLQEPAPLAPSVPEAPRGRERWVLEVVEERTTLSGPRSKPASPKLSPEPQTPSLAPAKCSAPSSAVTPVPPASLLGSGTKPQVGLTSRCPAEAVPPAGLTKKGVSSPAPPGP", "chain of UniProt P49336 (whole entry, looked up)": "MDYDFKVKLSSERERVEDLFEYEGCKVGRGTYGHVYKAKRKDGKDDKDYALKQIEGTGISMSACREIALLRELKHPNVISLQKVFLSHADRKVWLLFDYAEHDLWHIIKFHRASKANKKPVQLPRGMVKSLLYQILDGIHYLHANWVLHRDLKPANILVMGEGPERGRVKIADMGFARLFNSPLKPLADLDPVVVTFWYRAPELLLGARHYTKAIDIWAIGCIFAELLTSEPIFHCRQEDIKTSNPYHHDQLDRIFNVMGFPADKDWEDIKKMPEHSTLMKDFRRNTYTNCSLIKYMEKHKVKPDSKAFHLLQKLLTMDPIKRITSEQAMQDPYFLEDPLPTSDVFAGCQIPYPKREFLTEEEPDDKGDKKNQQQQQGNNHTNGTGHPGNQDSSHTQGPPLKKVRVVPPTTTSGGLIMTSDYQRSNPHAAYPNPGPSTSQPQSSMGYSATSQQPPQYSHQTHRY", "chain of UniProt Q9BVS4 (whole entry, looked up)": "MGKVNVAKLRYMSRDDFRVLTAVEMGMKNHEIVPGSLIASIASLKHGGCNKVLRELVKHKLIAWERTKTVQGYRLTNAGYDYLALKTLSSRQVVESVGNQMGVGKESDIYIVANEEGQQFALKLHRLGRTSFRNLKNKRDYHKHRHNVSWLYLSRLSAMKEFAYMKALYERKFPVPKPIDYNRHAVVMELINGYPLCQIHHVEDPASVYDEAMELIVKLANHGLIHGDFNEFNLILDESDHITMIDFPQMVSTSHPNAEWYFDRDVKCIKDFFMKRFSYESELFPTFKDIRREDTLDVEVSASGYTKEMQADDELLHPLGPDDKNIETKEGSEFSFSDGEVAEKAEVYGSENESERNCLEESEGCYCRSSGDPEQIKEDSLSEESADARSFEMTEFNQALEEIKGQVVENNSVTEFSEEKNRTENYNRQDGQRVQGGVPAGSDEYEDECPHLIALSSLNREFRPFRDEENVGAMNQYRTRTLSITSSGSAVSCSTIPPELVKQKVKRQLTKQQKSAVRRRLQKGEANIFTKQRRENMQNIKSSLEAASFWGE"}
{"data": "Block 1", "cell line": "A-375", "tested at": "100 µM", "time": "36 h"}
{"Structure (SMILES)": "CN1CCN(C2=Nc3ccccc3Oc3ccc(Cl)cc32)CC1", "viability": "-0.628%"}
{"Structure (SMILES)": "O=C(O)c1cc(-c2ccccc2)nc2ccccc12", "viability": "109%"}
{"Structure (SMILES)": "Cn1c(=O)c2c(ncn2CC2OCCO2)n(C)c1=O", "viability": "113%"}
{"Structure (SMILES)": "CCCN(CCC)C(=O)C(CCC(=O)O)NC(=O)c1ccccc1 (stereo not drawn)", "viability": "101%"}
{"Structure (SMILES)": "CCCS(=O)(=O)Nc1ccc(F)c(C(=O)c2c[nH]c3ncc(-c4ccc(Cl)cc4)cc23)c1F", "viability": "3.38%"}
{"Structure (SMILES)": "C#C[C@]1(O)CC[C@H]2[C@@H]3CCC4=CC(=O)CC[C@@H]4[C@H]3CC[C@@]21CC", "viability": "77.1%"}
{"Structure (SMILES)": "O=C(O)CCCc1ccccc1", "viability": "122%"}
{"Structure (SMILES)": "CN(C)CC(c1ccc(O)cc1)C1(O)CCCCC1 (stereo not drawn)", "viability": "98.7%"}
{"Structure (SMILES)": "CCc1c(C)[nH]c2c1C(=O)C(CN1CCOCC1)CC2 (stereo not drawn)", "viability": "102%"}
{"data": "Block 2", "Structure (SMILES)": "CC(C)(C(=O)O)[C@H](NC(=O)Cc1cccc(I)c1)c1ccc2oc(=O)[nH]c2c1", "technique": "Incucyte 3D growth", "tested at": "30 µM", "reading": "higher = more growth"}
{"cell line": "IPC-298", "conditions": "72 h", "spheroid area": "3.08e+07 a.u. and 2.43e+07 a.u. and 3.27e+07 a.u. and 3.47e+07 a.u. and 2.68e+07 a.u. and 2.86e+07 a.u."}
{"cell line": "MEL-JUSO", "conditions": "282.52 h", "spheroid area": "2.24e+07 a.u. and 2.39e+07 a.u. and 2.38e+07 a.u. and 3.64e+07 a.u. and 1.81e+07 a.u."}
{"cell line": "A375", "conditions": "48 h", "spheroid area": "2.92e+07 a.u. and 2.76e+07 a.u. and 1.3e+07 a.u. and 2.38e+07 a.u. and 1.06e+07 a.u. and 1.29e+07 a.u."}
{"cell line": "IPC-298", "conditions": "36 h", "spheroid area": "2.68e+07 a.u. and 2.11e+07 a.u. and 1.08e+07 a.u. and 2.49e+07 a.u. and 2.61e+07 a.u. and 1.84e+07 a.u."}
{"cell line": "A375", "conditions": "72 h", "spheroid area": "5.05e+07 a.u. and 4.02e+07 a.u. and 4.58e+07 a.u. and 4.89e+07 a.u. and 3.76e+07 a.u. and 2.06e+07 a.u."}
{"cell line": "A375", "conditions": "306.52 h", "spheroid area": "1.73e+08 a.u. and 1.95e+08 a.u. and 1.76e+08 a.u. and 1.79e+08 a.u. and 2e+08 a.u. and 1.72e+08 a.u."}
{"cell line": "IPC-298", "conditions": "264 h", "spheroid area": "4.05e+07 a.u. and 2.81e+07 a.u. and 4.26e+07 a.u. and 3.13e+07 a.u. and 3.5e+07 a.u. and 2.66e+07 a.u."}
{"data": "Block 3", "Compound": "O=C(Nc1cccnn1)N1CCC(=Cc2cccc(Oc3ccc(C(F)(F)F)cn3)c2)CC1", "effect on": "cell-free assay", "technique": "competition with immobilised ligand", "tested at": "1 µM"}
{"target": "IRAK4 (Homo sapiens, UniProt Q9NWZ3)", "remaining binding [%]": 97}
{"target": "RIOK2 (Homo sapiens, UniProt Q9BVS4)", "remaining binding [%]": 100}
{"target": "FYN (Homo sapiens, UniProt P06241)", "remaining binding [%]": 100}
{"target": "CDK8 (Homo sapiens, UniProt P49336)", "remaining binding [%]": 100}
{"target": "MAST1 (Homo sapiens, UniProt Q9Y2H9)", "remaining binding [%]": 100}
{"target": "HUNK (Homo sapiens, UniProt P57058)", "remaining binding [%]": 87}
{"target": "CDK16 (Homo sapiens, UniProt Q00536)", "remaining binding [%]": 100}
{"target": "CSK (Homo sapiens, UniProt P41240)", "remaining binding [%]": 100}
{"target": "TLK1 (Homo sapiens, UniProt Q9UKI8)", "remaining binding [%]": 100}
{"target": "AKT3 (Homo sapiens, UniProt Q9Y243)", "remaining binding [%]": 100}
{"target": "RET (Homo sapiens, UniProt P07949, V804L)", "remaining binding [%]": 86}
{"target": "PIK3CA (Homo sapiens, UniProt P42336, C420R)", "remaining binding [%]": 100}
{"target": "TSSK3 (Homo sapiens, UniProt Q96PN8)", "remaining binding [%]": 100}
{"target": "NTRK1 (Homo sapiens, UniProt P04629)", "remaining binding [%]": 100}
{"target": "WNK2 (Homo sapiens, UniProt Q9Y3S1)", "remaining binding [%]": 92}
{"target": "MAP2K5 (Homo sapiens, UniProt Q13163)", "remaining binding [%]": 100}
{"target": "PIM3 (Homo sapiens, UniProt Q86V86)", "remaining binding [%]": 79}
{"target": "GRK7 (Homo sapiens, UniProt Q8WTQ7)", "remaining binding [%]": 100}
{"target": "CDK3 (Homo sapiens, UniProt Q00526)", "remaining binding [%]": 100}
{"target": "MAP2K3 (Homo sapiens, UniProt P46734)", "remaining binding [%]": 100}
{"target": "TIE1 (Homo sapiens, UniProt P35590)", "remaining binding [%]": 100}
{"data": "Block 4", "target": "Diamine acetyltransferase 1 (Homo sapiens, UniProt P21673)", "action": "inhibitor", "tested at": "10 µM", "reference": "control", "Target sequence (P21673 1-171)": "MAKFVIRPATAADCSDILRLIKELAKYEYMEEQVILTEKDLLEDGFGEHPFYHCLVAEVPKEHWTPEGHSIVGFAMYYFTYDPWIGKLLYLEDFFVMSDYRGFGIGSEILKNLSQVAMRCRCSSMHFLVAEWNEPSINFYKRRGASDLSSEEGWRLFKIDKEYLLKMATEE"}
{"Compound": "O=C1c2c(O)cc(O)cc2O[C@H](c2ccc(O)c(O)c2)[C@H]1O", "remaining activity [%]": 93.8}
{"Compound": "O=C(O)CCc1cccc(O)c1", "remaining activity [%]": 89.8}
{"Compound": "O=c1c(O)c(-c2ccc(O)cc2O)oc2cc(O)cc(O)c12", "remaining activity [%]": 82.7}
{"Compound": "C=C(C)[C@@H]1CC[C@]2(C(=O)O)CC[C@]3(C)[C@H](CC[C@@H]4[C@@]5(C)CC[C@H](O)[C@@](C)(CO)[C@@H]5CC[C@]43C)[C@@H]12", "remaining activity [%]": 88.2}
{"Compound": "CC(C)=CCc1c(-c2ccc(O)cc2O)oc2c([C@H]3C=C(C)C[C@@H](c4ccc(O)cc4O)[C@@H]3C(=O)c3ccc(O)cc3O)c(O)cc(O)c2c1=O", "remaining activity [%]": 86.7}
{"Compound": "COc1cc([C@H]2OC[C@H]3[C@@H]2CO[C@@H]3c2ccc(O[C@@H]3O[C@H](CO)[C@@H](O)[C@H](O)[C@H]3O)c(OC)c2)ccc1O", "remaining activity [%]": 67.2}
{"Compound": "COc1cc(C=O)ccc1O", "remaining activity [%]": 100}
{"Compound": "CC(=O)O[C@@H]1C[C@@H]2CC[C@@]1(C)C2(C)C", "remaining activity [%]": 102}
{"Compound": "O=c1c(O[C@@H]2O[C@H](CO)[C@H](O)[C@H](O)[C@H]2O)c(-c2ccc(O)c(O)c2)oc2cc(O)cc(O)c12", "remaining activity [%]": 72.4}
{"Compound": "C=C1CC[C@]2(C)CC[C@]3(C)[C@H](CC[C@@H]4[C@@]5(C)CC[C@H](OC(C)=O)C(C)(C)[C@@H]5CC[C@]43C)[C@H]2[C@@H]1C", "remaining activity [%]": 91.9}
{"Compound": "O=C(O)C[C@H](O)C(=O)O", "remaining activity [%]": 88.3}
{"note": "A few entries again (block 1):"}
{"Structure (SMILES)": "C#C[C@]1(O)CC[C@H]2[C@@H]3CCC4=CC(=O)CC[C@@H]4[C@H]3CC[C@@]21CC", "viability": "77.1%"}
{"Structure (SMILES)": "CN1CCN(C2=Nc3ccccc3Oc3ccc(Cl)cc32)CC1", "viability": "-0.628%"}
{"Structure (SMILES)": "CCCN(CCC)C(=O)C(CCC(=O)O)NC(=O)c1ccccc1 (stereo not drawn)", "viability": "101%"}
{"Structure (SMILES)": "O=C(O)c1cc(-c2ccccc2)nc2ccccc12", "viability": "109%"}
{"Structure (SMILES)": "CCCS(=O)(=O)Nc1ccc(F)c(C(=O)c2c[nH]c3ncc(-c4ccc(Cl)cc4)cc23)c1F", "viability": "3.38%"}
{"Structure (SMILES)": "CN(C)CC(c1ccc(O)cc1)C1(O)CCCCC1 (stereo not drawn)", "viability": "98.7%"}
{"Structure (SMILES)": "CCc1c(C)[nH]c2c1C(=O)C(CN1CCOCC1)CC2 (stereo not drawn)", "viability": "102%"}
